Measured values gathered from unrelated publications.
± gives the spread as reported.

Sequences of proteins named here, by UniProt entry; tags and fusion partners are left off. A change or cut given only in a name is not applied to a line headed by its entry. Residues count along the entry.
UniProt O94788, 27-518 limits assumed: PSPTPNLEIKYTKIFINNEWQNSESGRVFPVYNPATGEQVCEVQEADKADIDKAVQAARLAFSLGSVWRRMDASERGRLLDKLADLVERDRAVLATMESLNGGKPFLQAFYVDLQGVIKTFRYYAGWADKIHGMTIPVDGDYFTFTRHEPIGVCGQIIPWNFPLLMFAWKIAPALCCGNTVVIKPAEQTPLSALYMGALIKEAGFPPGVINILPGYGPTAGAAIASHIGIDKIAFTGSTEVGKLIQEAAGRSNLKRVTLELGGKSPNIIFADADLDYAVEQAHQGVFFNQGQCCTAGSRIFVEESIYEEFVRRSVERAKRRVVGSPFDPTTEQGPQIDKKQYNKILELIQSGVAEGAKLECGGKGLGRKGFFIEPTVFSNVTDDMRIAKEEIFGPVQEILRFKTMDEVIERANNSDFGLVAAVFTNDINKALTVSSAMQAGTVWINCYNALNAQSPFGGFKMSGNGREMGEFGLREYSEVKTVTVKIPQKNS
UniProt Q14790, 214-479 D374A/D384A/C409S/C433S limits assumed: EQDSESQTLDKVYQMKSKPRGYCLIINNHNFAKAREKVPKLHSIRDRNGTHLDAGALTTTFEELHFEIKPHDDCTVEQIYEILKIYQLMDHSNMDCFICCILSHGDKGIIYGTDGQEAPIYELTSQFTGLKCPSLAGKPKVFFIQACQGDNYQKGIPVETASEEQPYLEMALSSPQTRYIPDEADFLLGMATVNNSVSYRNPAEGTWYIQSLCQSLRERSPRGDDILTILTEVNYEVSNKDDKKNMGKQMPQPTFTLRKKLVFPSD

`CCOc1ccsc1C(=O)N1CCN(c2ccc([N+](=O)[O-])c(N3CCCC3)c2)CC1` has a ΔTm of 5 ± 0.03 °C (Retinal dehydrogenase 2 (ALDH1A2, Homo sapiens, UniProt O94788); thermal stability, differential scanning fluorimetry; 200 µM, without NAD).
With `COc1ccccc1N1CCN(C(=O)c2cc([N+](=O)[O-])ccc2Cl)CC1` the IC50 was over 100 µM (Saccharomyces cerevisiae; cell growth; ho∆/HO diploid control).
With `CN(C)S(=O)(=O)c1ccc(NCCCCN2CCC(Nc3nc4ccccc4n3Cc3ccc(F)cc3)CC2)c2nonc12` the fluorescence increase was about 6 fold (hERG HEK293 membranes; 1 µM, 20 min; reference: blank).
For `O=C(c1ccc(N2CCOCC2)cc1)N1CCC[C@@H](N(C(=O)CCl)c2ccccc2)C1`, the probe labelling was over 90% (Caspase-8 (CASP8, Homo sapiens, UniProt Q14790, C409S/C433S/D374A/D384A); competitive gel-based ABPP; HEK293T cell lysate; 10 µM, 1 h).

A few entries again:
With `CN(C)S(=O)(=O)c1ccc(NCCCCN2CCC(Nc3nc4ccccc4n3Cc3ccc(F)cc3)CC2)c2nonc12` the fluorescence increase was about 6 fold (hERG HEK293 membranes; 1 µM, 20 min; reference: blank).
